# Published values pooled from the literature.
# Each line is one published result; not all experiments were run side by side.
# KCNH2: Voltage-gated inwardly rectifying potassium channel KCNH2 (KCNH2, Homo sapiens, UniProt Q12809)
# Chain of UniProt Q12809 (whole entry, looked up): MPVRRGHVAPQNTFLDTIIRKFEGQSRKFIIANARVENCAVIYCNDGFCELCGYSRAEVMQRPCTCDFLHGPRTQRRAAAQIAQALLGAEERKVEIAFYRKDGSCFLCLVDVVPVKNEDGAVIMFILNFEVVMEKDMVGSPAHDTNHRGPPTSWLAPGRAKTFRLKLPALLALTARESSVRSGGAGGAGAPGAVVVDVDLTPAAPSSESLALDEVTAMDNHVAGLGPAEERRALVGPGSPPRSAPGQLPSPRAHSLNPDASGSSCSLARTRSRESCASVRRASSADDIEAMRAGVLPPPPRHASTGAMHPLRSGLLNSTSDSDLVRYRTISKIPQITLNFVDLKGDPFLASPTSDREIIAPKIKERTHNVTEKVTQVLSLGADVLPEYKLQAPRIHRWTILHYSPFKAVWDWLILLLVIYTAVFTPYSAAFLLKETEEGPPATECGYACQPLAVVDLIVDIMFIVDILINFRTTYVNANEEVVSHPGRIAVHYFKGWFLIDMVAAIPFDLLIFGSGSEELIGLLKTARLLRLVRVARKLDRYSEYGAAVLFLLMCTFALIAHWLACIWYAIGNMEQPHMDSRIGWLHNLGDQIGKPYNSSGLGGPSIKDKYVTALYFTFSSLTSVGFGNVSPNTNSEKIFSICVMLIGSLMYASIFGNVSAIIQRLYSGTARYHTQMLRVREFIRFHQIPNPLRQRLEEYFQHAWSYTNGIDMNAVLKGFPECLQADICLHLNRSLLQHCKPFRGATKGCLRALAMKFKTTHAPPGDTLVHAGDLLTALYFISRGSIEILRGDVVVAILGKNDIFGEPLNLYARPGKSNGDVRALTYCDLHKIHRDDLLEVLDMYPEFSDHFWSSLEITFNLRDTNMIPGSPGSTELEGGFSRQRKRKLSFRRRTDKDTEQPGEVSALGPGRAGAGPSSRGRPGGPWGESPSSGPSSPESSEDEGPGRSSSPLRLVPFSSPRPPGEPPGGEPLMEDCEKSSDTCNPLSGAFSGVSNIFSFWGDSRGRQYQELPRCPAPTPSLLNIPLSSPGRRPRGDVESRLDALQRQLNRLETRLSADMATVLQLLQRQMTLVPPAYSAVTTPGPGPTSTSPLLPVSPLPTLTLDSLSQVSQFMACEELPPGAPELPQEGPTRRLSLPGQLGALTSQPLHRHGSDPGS
# Chain of UniProt Q96FL8 (whole entry, looked up): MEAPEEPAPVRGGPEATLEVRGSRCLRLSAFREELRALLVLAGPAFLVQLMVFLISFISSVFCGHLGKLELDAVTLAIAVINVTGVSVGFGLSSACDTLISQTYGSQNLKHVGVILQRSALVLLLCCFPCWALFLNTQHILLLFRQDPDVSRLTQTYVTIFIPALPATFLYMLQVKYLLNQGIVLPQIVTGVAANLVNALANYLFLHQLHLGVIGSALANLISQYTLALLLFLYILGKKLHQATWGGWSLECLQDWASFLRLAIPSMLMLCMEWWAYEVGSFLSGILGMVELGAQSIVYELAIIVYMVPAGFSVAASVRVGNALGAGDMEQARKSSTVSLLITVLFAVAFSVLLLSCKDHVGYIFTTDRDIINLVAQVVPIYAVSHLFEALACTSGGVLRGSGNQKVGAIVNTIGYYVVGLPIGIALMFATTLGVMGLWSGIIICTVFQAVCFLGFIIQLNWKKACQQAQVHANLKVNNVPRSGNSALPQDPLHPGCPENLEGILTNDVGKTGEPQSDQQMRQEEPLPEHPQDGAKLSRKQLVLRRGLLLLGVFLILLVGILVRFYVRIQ
SMILES,target or system,assay,test system,setting,endpoint,value
COc1cccc(OC)c1-c1cc(C(=O)NC2(C(=O)O)C3CC4CC(C3)CC2C4)nn1-c1ccc(C(=O)N(C)CCCN(C)CCCN(C)C(=O)CN2CCN(CC(=O)[O-])CCN(CC(=O)[O-])CCN(CC(=O)[O-])CC2)cc1C(C)C.[177Lu+3] (stereo not shown),HT-29 tumour model,,"host not given, bone","72 h, tumour-bearing",tracer uptake,0.22 %ID/g
CCOC(=O)C1=C(CN2CCC[C@@H]2C(=O)Nc2ccc(B(O)O)cc2)NC(c2nccs2)=N[C@H]1c1ccc(F)cc1Br,KCNH2,"ion current, inhibitor, patch clamp",HEK293,"10 µM, pH 7.4",inhibition,61%
CCOC(=O)[C@@]12C[C@@H]1[C@@H](n1ccc3c(NC)nc(C#Cc4ccc(Cl)s4)nc31)[C@H](O)[C@@H]2O,,,"male Sprague-Dawley rat, plasma","oral, 10 mg/kg, 8 h",concentration,8.28 ng/mL
N#C[C@@]12C[C@@H]1[C@@H](n1cnc3c(N[C@@H](C4CCC4)C4CC4)nc(I)nc31)[C@H](O)[C@@H]2O,,,"male Wistar rat, plasma","oral, 1 mg/kg",Tmax,1 h
CCN1CCN(Cc2ccc(NC(=O)c3ccc(C)c(NC(=O)c4cncc(-c5cccs5)c4)c3)cc2C(F)(F)F)CC1,,,"mouse, plasma","intraperitoneal, 10 mg/kg, single dose",AUC(0-inf),1210 ng·h/mL
COc1cccc(-c2n[nH]c(SCc3ccccn3)n2)c1OC,,,"male Sprague-Dawley rat, plasma","intravenous, 1 mg/kg, 30 min, single dose",concentration,676 ng/mL
CC(=O)OC[C@@]1(C)[C@H]2CC[C@@H]3CN(Cc4ccccc4C)[C@@H](C4=CCOC4=O)C[C@H]3[C@]2(C)CC[C@H]1OC(C)=O,MRC5,"cell growth or viability, ATP luminescence",,"25 µM, 72 h",cell death,-4.9%
O=c1[nH]c(=O)c(Cc2cccc(C(F)(F)F)c2)c([C@H]2CC[C@H](c3ccccc3)CC2)[nH]1,"SLC47A1 (Homo sapiens, UniProt Q96FL8)","transporter uptake, inhibitor",,8 µM,inhibition,< 50%
Nc1ccn([C@@H]2O[C@H](CO)[C@@H](O)C2(F)F)c(=O)n1,MCF7,"cell growth or viability, MTT",,"10 µg/mL, 48 h",viability,17.2%
CN(C)C(=O)CN1CCN(c2cnc3c(cc(C(=O)NCc4ccc(Cl)cc4)c(=O)n3CC(=O)N3CC(C)(F)C3)n2)C1=O,KCNH2,"ion current, inhibitor, patch clamp",,40 µM,inhibition,42%
CC1(C)OC[C@@]2(C)[C@H]3CC[C@@H]4CN(Cc5ccco5)[C@@H](C5=CCOC5=O)C[C@H]4[C@]3(C)CC[C@H]2O1,MRC5,"cell growth or viability, ATP luminescence",,"25 µM, 72 h",cell death,-2.9%
O=C1CC[C@H](N2Cc3cc(N4CCN(CC5CCN(c6ccc([C@@H]7c8ccc(O)cc8CC[C@@H]7c7ccccc7)cc6)CC5)CC4)ccc3C2=O)C(=O)N1,,,"male Sprague-Dawley rat, plasma","oral, 20 mg/kg, fasted",MRT(0-inf),4.74 h
CC1(F)CN(C(=O)Cn2c(=O)c(C(=O)NCc3ccc(Cl)cc3)cc3nc(N4CCCC4=O)cnc32)C1,KCNH2,"ion current, inhibitor, patch clamp",,40 µM,inhibition,45%
COc1cccc(OC)c1-c1cc(C(=O)NC2(C(=O)O)C3CC4CC(C3)CC2C4)nn1-c1ccc(C(=O)N(C)CCCN(C)CCCN(C)C(=O)CN2CCN(CC(=O)[O-])CCN(CC(=O)[O-])CCN(CC(=O)[O-])CC2)cc1C(C)C.[177Lu+3] (stereo not shown),HT-29 tumour model,,"host not given, tumour","intravenous, 4 h, tumour-bearing",tracer uptake,29 %ID/g
NCc1cc2c(cc1F)C(=O)N(C1CCC(=O)NC1=O)C2 (stereo not shown),,,"male cynomolgus monkey, plasma","oral, 0.3 mg/kg, 4 h",concentration,0.55 ng/mL
O=C(c1ccc(F)cc1)C1CCN(CCn2c(=O)[nH]c3ccccc3c2=O)CC1,,"metabolic stability, mass spectrometry","mouse, liver microsomes",15 min,compound remaining,47.3%
